Measured values gathered from unrelated publications.
In brackets after ≈: the same amount, converted by molar mass.
Organism: Klebsiella pneumoniae

| SMILES | test | system | setting | how to read | measurement | value |
| --- | --- | --- | --- | --- | --- | --- |
| C[C@@](O)(C(F)F)[C@H](NC(=O)c1ccc(C#CC#CC2CC2)cc1)C(=O)NO | broth microdilution | 10031 | together with: mouse plasma 50% | baseline: CAMHB alone | MIC fold increase | 4 |
| COc1ccc(-c2ccn(CC[C@](C)(C(=O)NO)S(C)(=O)=O)c(=O)c2)c(F)c1 | microbial growth |  | clinical isolate |  | MIC90 | 1 mg/L (≈ 2.42 µM) |
| COc1ccc2ccc3c(c2c1)C=[N+]1C2CCCCC2[N+]2=Cc4cc(C(C)(C)C)cc(C(C)(C)C)c4[O][Au-]21[O]3.F[P-](F)(F)(F)(F)F (stereo not drawn) | bacterial growth, broth microdilution | carbapenem-resistant | 24 h |  | MIC | > 20 µM |
| CC[C@H](C)[C@H](NC(=O)[C@H](CCCNC(=N)N)NC(=O)[C@H](CCCCN)NC(=O)[C@H](CC(C)C)NC(=O)[C@H](CC(C)C)NC(=O)CN)C(=O)N[C@@H](CCCCN)C(=O)N[C@H](C(=O)N[C@@H](CC(C)C)C(=O)N[C@@H](CC(C)C)C(=O)NCCCC[C@H](NC(=O)[C@H](CC(C)C)NC(=O)[C@H](CC(C)C)NC(=O)[C@@H](NC(=O)[C@H](CCCCN)NC(=O)[C@@H](NC(=O)[C@H](CCCNC(=N)N)NC(=O)[C@H](CCCCN)NC(=O)[C@H](CC(C)C)NC(=O)[C@H](CC(C)C)NC(=O)CN)[C@@H](C)CC)[C@@H](C)O)C(N)=O)[C@@H](C)O | checkerboard | ATCC 700603 | together with: rifampicin |  | FIC index | 0.562 |
| CC[C@H](C)CCCCC(=O)N[C@@H](CCN)C(=O)N[C@H](C(=O)N[C@@H](CCN)C(=O)N[C@H]1CCNC(=O)[C@H]([C@@H](C)O)NC(=O)[C@H](CCN)NC(=O)[C@H](CCN)NC(=O)[C@H](CC(C)C)NC(=O)[C@@H](Cc2ccccc2)NC(=O)[C@H](CCN)NC1=O)[C@@H](C)O |  | NR-41920 | 2× and 5× MIC |  | time to kill | ≤ 2 h |
| CCCCCCCCCCCCCC(=O)N[C@H](CCN)C(=O)N[C@@H]1C(=O)N[C@@H](CCN)C(=O)N[C@@H](CC(C)C)C(=O)N[C@@H](CCN)C(=O)N[C@H](Cc2ccccc2)C(=O)N[C@@H](CC(C)C)C(=O)N[C@@H](CCN)C(=O)N[C@H](CCN)C(=O)N[C@@H](C(C)C)C(=O)N[C@@H](CC(=O)O)C(=O)O[C@@H]1C |  | BNCC 353393, XDR, colistin and carbapenem resistant, neutropenic mice, thigh infection | subcutaneous, 20 mg/kg once daily | baseline: vehicle | reduction in bacterial burden | 3.12 log10 CFU |
| COc1ccc2ccc3c(c2c1)C=[N+]1C2CCCCC2[N+]2=Cc4cccc(C)c4[O][Au-]21[O]3.F[P-](F)(F)(F)(F)F (stereo not drawn) | bacterial growth, broth microdilution | carbapenem-resistant | 24 h |  | MIC | 20 µM |
| NC(CNC(CNC(CC(=O)O)C(=O)O)C(=O)O)C(=O)O (stereo not drawn) |  | N11-2218 NDM-1-positive, CD-1 mice | dose not given |  | tissue bacterial load | no effect |
| Oc1ccc(Cl)cc1-c1nc2c(C(F)(F)F)cc(C(F)(F)F)cc2[nH]1 | colistin potentiator | B9 | 5 µM |  | MIC of colistin | 0.25 mg/L |
| CCCC(=O)NCC(=O)N[C@@H](CC(C)C)C(=O)N[C@@H](CC(C)C)C(=O)N[C@@H](CCCCN)C(=O)N[C@@H](CCCNC(=N)N)C(=O)N[C@H](C(=O)N[C@@H](CCCCN)C(=O)N[C@H](C(=O)N[C@@H](CC(C)C)C(=O)N[C@@H](CC(C)C)C(=O)NCCCC[C@H](NC(=O)[C@H](CC(C)C)NC(=O)[C@H](CC(C)C)NC(=O)[C@@H](NC(=O)[C@H](CCCCN)NC(=O)[C@@H](NC(=O)[C@H](CCCNC(=N)N)NC(=O)[C@H](CCCCN)NC(=O)[C@H](CC(C)C)NC(=O)[C@H](CC(C)C)NC(=O)CNC(=O)CCC)[C@@H](C)CC)[C@@H](C)O)C(N)=O)[C@@H](C)O)[C@@H](C)CC | checkerboard | ATCC 700603 | together with: polymyxin B |  | FIC index | 0.312 |
| COc1ccc2ccc3c(c2c1)C=[N+]1C2CCCCC2[N+]2=Cc4cccc(F)c4[O][Au-]21[O]3.F[P-](F)(F)(F)(F)F (stereo not drawn) | bacterial growth, broth microdilution | carbapenem-resistant clinical isolate | 24 h |  | MIC | 10 µM |
| CCCC(=O)NCC(=O)N[C@@H](CC(C)C)C(=O)N[C@@H](CC(C)C)C(=O)N[C@@H](CCCCN)C(=O)N[C@@H](CCCNC(=N)N)C(=O)N[C@H](C(=O)N[C@@H](CCCCN)C(=O)N[C@H](C(=O)N[C@@H](CC(C)C)C(=O)N[C@@H](CC(C)C)C(=O)NCCCC[C@H](NC(=O)[C@H](CC(C)C)NC(=O)[C@H](CC(C)C)NC(=O)[C@@H](NC(=O)[C@H](CCCCN)NC(=O)[C@@H](NC(=O)[C@H](CCCNC(=N)N)NC(=O)[C@H](CCCCN)NC(=O)[C@H](CC(C)C)NC(=O)[C@H](CC(C)C)NC(=O)CNC(=O)CCC)[C@@H](C)CC)[C@@H](C)O)C(=O)NCCCC[C@H](NC(=O)[C@H](CCCCNC(=O)[C@H](CC(C)C)NC(=O)[C@H](CC(C)C)NC(=O)[C@@H](NC(=O)[C@H](CCCCN)NC(=O)[C@@H](NC(=O)[C@H](CCCNC(=N)N)NC(=O)[C@H](CCCCN)NC(=O)[C@H](CC(C)C)NC(=O)[C@H](CC(C)C)NC(=O)CNC(=O)CCC)[C@@H](C)CC)[C@@H](C)O)NC(=O)[C@H](CC(C)C)NC(=O)[C@H](CC(C)C)NC(=O)[C@@H](NC(=O)[C@H](CCCCN)NC(=O)[C@@H](NC(=O)[C@H](CCCNC(=N)N)NC(=O)[C@H](CCCCN)NC(=O)[C@H](CC(C)C)NC(=O)[C@H](CC(C)C)NC(=O)CNC(=O)CCC)[C@@H](C)CC)[C@@H](C)O)C(N)=O)[C@@H](C)O)[C@@H](C)CC | checkerboard | ATCC 700603 | together with: rifampicin |  | FIC index | 0.25 |
| CCCCCCCCCCCCCCCC(=O)NCCCC[C@H](NC(=O)[C@H](CCCNC(=N)N)NC(=O)[C@H](Cc1ccc(O)cc1)NC(=O)[C@H](CC(C)C)NC(=O)[C@H](CCCNC(=N)N)NC(=O)CNS(=O)(=O)c1ccc(N)cc1)C(N)=O |  | ATCC 13883, C57BL/6 mouse, pneumonia model | intratracheal, 2 mg/kg |  | survival rate | 80% |
| CCCCCC(=O)NCC(=O)N[C@@H](CC(C)C)C(=O)N[C@@H](CC(C)C)C(=O)N[C@@H](CCCCN)C(=O)N[C@@H](CCCNC(=N)N)C(=O)N[C@H](C(=O)N[C@@H](CCCCN)C(=O)N[C@H](C(=O)N[C@@H](CC(C)C)C(=O)N[C@@H](CC(C)C)C(=O)NCCCC[C@H](NC(=O)[C@H](CCCCNC(=O)[C@H](CC(C)C)NC(=O)[C@H](CC(C)C)NC(=O)[C@@H](NC(=O)[C@H](CCCCN)NC(=O)[C@@H](NC(=O)[C@H](CCCNC(=N)N)NC(=O)[C@H](CCCCN)NC(=O)[C@H](CC(C)C)NC(=O)[C@H](CC(C)C)NC(=O)CNC(=O)CCCCC)[C@@H](C)CC)[C@@H](C)O)NC(=O)[C@H](CC(C)C)NC(=O)[C@H](CC(C)C)NC(=O)[C@@H](NC(=O)[C@H](CCCCN)NC(=O)[C@@H](NC(=O)[C@H](CCCNC(=N)N)NC(=O)[C@H](CCCCN)NC(=O)[C@H](CC(C)C)NC(=O)[C@H](CC(C)C)NC(=O)CNC(=O)CCCCC)[C@@H](C)CC)[C@@H](C)O)C(N)=O)[C@@H](C)O)[C@@H](C)CC | checkerboard | ATCC 700603 | together with: gentamicin |  | FIC index | 0.375 |
| COc1ccc2ccc3c(c2c1)C=[N+]1C2CCCCC2[N+]2=Cc4c(F)cccc4[O][Au-]21[O]3.F[P-](F)(F)(F)(F)F (stereo not drawn) | bacterial growth, broth microdilution | carbapenem-resistant clinical isolate | 24 h |  | MIC | > 20 µM |

Repeated from above:
| SMILES | test | system | setting | how to read | measurement | value |
| --- | --- | --- | --- | --- | --- | --- |
| CC[C@H](C)CCCCC(=O)N[C@@H](CCN)C(=O)N[C@H](C(=O)N[C@@H](CCN)C(=O)N[C@H]1CCNC(=O)[C@H]([C@@H](C)O)NC(=O)[C@H](CCN)NC(=O)[C@H](CCN)NC(=O)[C@H](CC(C)C)NC(=O)[C@@H](Cc2ccccc2)NC(=O)[C@H](CCN)NC1=O)[C@@H](C)O |  | NR-41920 | 2× and 5× MIC |  | time to kill | ≤ 2 h |
